Results from different studies.
Every numbered part comes from another study and shows a few of its results, in no order. Changes are numbered by the printed parent chain.

Sample 1
Target: Histone acetyltransferase KAT6A, winged helix 2, GST fusion (KAT6A, Homo sapiens, UniProt Q92794, residues 85-181)
Method: protein binding microarray
Form: double-stranded DNA, one strand shown
Sample: in vitro
Tested at: not given
Setting: 8-mer, flanks averaged, mean of 2 arrays, mostly near background
Baseline: not given
Reading: higher = stronger binding
Residues (chain): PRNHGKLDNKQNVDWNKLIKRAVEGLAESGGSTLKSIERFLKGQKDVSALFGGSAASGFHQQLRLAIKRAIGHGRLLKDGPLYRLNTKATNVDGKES
| Sequence | E-score |
| --- | --- |
| GAGAGGCC | 0.109 |
| TCACGCAA | 0.0452 |
| GGGCCAAC | 0.0669 |
| AGTTCCAA | 0.115 |
| ATGGCCTA | -0.181 |
| ACCATAGT | -0.0641 |
| AACTATAA | -0.121 |
| AACACGTC | -0.197 |

Sample 2
Target: CCND1, cyclin fold, Cln2 fusion (human)
Method: yeast growth competition, sequencing
Sample: yeast
Setting: strong parent motif
Baseline: not given
Reading: higher = stronger binding
Parent: viral docking peptide; KGVKRKLFAEDSS; partner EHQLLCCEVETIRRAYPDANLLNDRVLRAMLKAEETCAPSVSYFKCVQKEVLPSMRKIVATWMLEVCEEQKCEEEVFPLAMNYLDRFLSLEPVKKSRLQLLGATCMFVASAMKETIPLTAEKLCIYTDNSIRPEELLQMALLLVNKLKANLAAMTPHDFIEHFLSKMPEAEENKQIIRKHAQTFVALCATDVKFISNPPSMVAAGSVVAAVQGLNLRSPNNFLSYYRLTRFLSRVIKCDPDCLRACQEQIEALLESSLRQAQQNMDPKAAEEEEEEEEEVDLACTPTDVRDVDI
| Substitution | normalised enrichment score |
| --- | --- |
| L7I | 0.131 |
| V3K | -0.146 |
| D11G | 0.947 |
| K4S | 1.75 |
| F8I | 0.0875 |
| G2E | 1.3 |

Sample 3
Target: inorganic phosphate, free oxyanion
Method: microfluidic competitive inhibition
Sample: in vitro, cell-free expressed
Tested at: not given
Setting: derived from inhibition constants, unchanged parent 615000 nM
Reading: lower = stronger binding
Parent: PafA, mature enzyme, eGFP fusion (Elizabethkingia meningoseptica, UniProt Q9KJX5); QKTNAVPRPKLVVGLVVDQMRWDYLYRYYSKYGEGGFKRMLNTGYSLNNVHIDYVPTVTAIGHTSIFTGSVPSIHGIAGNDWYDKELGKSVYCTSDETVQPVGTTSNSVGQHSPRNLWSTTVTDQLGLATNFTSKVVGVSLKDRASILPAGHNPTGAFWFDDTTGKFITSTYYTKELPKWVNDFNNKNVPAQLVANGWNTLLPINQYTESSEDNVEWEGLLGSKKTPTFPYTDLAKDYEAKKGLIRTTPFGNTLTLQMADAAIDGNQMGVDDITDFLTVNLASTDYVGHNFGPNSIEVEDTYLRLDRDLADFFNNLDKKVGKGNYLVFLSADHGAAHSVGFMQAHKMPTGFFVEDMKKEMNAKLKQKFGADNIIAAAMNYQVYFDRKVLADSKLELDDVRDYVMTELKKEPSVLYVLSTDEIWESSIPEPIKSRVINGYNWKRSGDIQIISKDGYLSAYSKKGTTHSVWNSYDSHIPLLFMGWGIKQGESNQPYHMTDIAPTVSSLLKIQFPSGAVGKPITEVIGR
| Substitution | phosphate dissociation constant [µM] |
| --- | --- |
| Y325G | 511 |
| A157G | 602 |
| K486V | 695 |
| W22V | 496 |
| L407V | 662 |
| K89V | 595 |
| N116V | 696 |
| Y415V | 495 |
| S134G | 576 |
| S223V | 573 |
| L389V | 717 |
| I431G | 285 |
| V17G | 484 |
| A261V | 610 |
| A60G | 443 |
| V416A | 680 |
| G445V | 63.7 |
| D308V | 622 |
| V181G | 516 |
| K319G | 507 |
| A458G | 612 |

Sample 4
Target: UDP-N-acetylglucosamine--peptide N-acetylglucosaminyltransferase 110 kDa subunit (OGT, Homo sapiens, UniProt O15294)
Sequence of UniProt O15294 (whole entry, looked up): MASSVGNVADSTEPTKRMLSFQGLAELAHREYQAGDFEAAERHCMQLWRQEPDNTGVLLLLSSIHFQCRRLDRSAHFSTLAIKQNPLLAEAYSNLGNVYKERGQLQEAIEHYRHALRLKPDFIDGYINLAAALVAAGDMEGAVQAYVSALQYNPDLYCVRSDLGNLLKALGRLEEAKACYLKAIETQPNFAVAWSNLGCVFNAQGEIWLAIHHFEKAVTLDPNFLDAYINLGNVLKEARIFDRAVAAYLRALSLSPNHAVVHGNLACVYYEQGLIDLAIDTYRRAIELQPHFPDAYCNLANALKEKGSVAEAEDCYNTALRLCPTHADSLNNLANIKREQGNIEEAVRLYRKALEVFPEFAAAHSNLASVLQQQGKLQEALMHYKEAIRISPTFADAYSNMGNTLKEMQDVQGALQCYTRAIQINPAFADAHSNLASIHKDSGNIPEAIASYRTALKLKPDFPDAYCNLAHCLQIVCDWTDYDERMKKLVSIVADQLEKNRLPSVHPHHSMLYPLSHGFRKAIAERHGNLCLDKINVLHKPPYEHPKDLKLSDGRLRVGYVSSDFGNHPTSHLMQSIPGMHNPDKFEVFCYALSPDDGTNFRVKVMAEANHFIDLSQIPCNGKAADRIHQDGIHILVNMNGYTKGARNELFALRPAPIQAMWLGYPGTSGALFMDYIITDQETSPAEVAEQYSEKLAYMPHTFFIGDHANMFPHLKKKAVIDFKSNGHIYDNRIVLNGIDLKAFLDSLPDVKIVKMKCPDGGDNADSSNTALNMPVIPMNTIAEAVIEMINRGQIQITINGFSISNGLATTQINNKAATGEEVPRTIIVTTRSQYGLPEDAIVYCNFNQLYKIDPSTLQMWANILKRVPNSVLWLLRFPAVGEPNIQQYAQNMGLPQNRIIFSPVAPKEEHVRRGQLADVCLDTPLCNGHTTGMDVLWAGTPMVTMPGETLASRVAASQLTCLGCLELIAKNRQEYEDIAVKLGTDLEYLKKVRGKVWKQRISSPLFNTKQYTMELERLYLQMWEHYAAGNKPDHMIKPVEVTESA
Read-out: binding
Method: phage display NGS
Form: peptide
Baseline: input library
| Molecule | minimum log2 enrichment ratio |
| --- | --- |
| RPLEQSHHHIFFSKR | 1.03 |
| HQHRDMRTHPSHGAI | 3.27 |
| QWQYNLMPYYSINYK | 0.978 |
| WDYIPMYQIQSVRG | 3.23 |
| TKNAYSPQYQISYIF | 3.76 |
| RYYEPVYQIVATNSN | 2.66 |
| HLKHHYLAFTTHHPG | 3 |
| KDIRQDYLPFYQITV | 4.82 |
| NLIIDFMPKYQLFYQ | 4.15 |
| YRLYTPQYQIQWSTN | 5.05 |
| TFMPQTHHRPHHSNH | 3.33 |
| TWEWPYHRHMQHPFA | 3.9 |
| YPWHRPHQHTYERDE | 2.42 |
| HYTPHQQQRAHAKWS | 3.77 |
| RVQHTFQHETGKHHH | 2.6 |
| THTYHPHHIPSDHVH | 3.33 |
| QHHWMHHEWQAHQPH | 1.61 |
| QWKPRHDHIHYYEYH | 3 |
| HQRHGQHQQVFFHID | 3.23 |

Repeated from above (sample 3):
| Substitution | phosphate dissociation constant [µM] |
| --- | --- |
| K319G | 507 |
| W22V | 496 |
| K89V | 595 |
